Published values of several laboratories.
Parts stem from different laboratories: compare values within a part only. Substitutions count along the parent as printed.

Set 1 — target: vanadate, free oxyanion; technique: microfluidic competitive inhibition; medium: in vitro, cell-free expressed; tested at: not given; direction: lower = stronger binding; quantity: oxyanion analog dissociation constant
Setting: derived from inhibition constants, unchanged parent 676 nM
Starting sequence: PafA, mature enzyme, eGFP fusion (Elizabethkingia meningoseptica, UniProt Q9KJX5); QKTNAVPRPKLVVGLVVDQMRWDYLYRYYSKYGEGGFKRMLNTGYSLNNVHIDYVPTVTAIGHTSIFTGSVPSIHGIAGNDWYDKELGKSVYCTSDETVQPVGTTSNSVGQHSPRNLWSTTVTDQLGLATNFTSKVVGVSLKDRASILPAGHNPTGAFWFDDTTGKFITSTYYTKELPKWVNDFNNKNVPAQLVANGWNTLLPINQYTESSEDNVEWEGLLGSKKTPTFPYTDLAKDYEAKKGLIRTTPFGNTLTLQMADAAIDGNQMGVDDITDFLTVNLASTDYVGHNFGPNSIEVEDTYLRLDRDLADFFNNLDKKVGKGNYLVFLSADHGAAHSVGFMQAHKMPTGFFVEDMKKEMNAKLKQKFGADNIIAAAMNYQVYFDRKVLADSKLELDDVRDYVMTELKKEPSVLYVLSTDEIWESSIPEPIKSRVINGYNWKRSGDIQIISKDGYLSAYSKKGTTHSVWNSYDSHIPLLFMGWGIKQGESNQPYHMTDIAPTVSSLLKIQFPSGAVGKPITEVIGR
Change = K357V; value = 0.759 µM
Change = E406G; value = 0.785 µM
Change = G438A; value = 0.42 µM
Change = V6G; value = 0.509 µM
Change = I520V; value = 0.77 µM
Change = A150V; value = 0.624 µM
Change = Y207G; value = 0.66 µM
Change = V136A; value = 0.512 µM
Change = V109A; value = 0.796 µM
Change = P501V; value = 0.724 µM
Change = Q257G; value = 0.711 µM
Change = V382A; value = 0.77 µM
Change = F352G; value = 0.515 µM
Change = L364G; value = 0.611 µM
Change = D237V; value = 0.489 µM
Change = N199G; value = 0.639 µM
Change = G488A; value = 0.631 µM
Change = T43G; value = 0.668 µM
Change = S73V; value = 1.61 µM
Change = F184G; value = 3.07 µM
Change = P430G; value = 0.446 µM
Change = F184V; value = 0.588 µM
Change = I373G; value = 0.525 µM
Change = V17G; value = 0.737 µM
Change = E176G; value = 0.713 µM

Set 2 — medium: plasma; route: oral; quantity: Cmax
Structure (SMILES): CNC(=O)c1ccc(-c2cnn3ccc(C(=O)N(C)c4ccc(Cl)c(C(=O)O)c4)cc23)cc1
test system = bovine; conditions = 20 mg/kg/day; value = 11.1 ng/mL
test system = beagle dog; conditions = 50 mg/kg/day, multiple doses; value = 16.6 ng/mL
test system = Wistar rat, both sexes; conditions = 250 mg/kg/day, 2 weeks, GLP toxicology study; value = 109 ng/mL
test system = female C57BL/6 mouse; conditions = 10 mg/kg/day; value = 15.5 ng/mL

Set 3 — technique: protein-binding microarray; form: double-stranded DNA, one strand shown; medium: in vitro; tested at: 250 nM; setting: 60-bp whole probe; added: salmon DNA 0.4 mg/ml; relative to: random background probes; direction: higher = stronger binding; quantity: log fluorescence; shared flanks, not repeated: GCCTAGCAC … GTCTTGATTCGCTTGACGCTGCTG
Target: Interferon regulatory factor 5, full length, phosphomimetic (IRF5, Homo sapiens, UniProt Q13568-2, residues 1-514, K96S/S451D/S453D/S456D/S462D)
Strand = TTAGGTCTCGGTCTCTGTTAGTGCTAG; value = 0.533 z-score
Strand = TTAGGAATGCTTTTCCTTTAGTGCTAG; value = 0.321 z-score
Strand = GACGAACTGAGCATCGAGACGTGCTAG; value = -0.0763 z-score
Strand = GATGGACTGGGTTTCGGGACGTGCTAG; value = 2.2 z-score
Strand = TTAGAACTGTGGTATCGATTAGTGCTA; value = 4.52 z-score
Strand = GACGGTATCCTACTACTGACGTGCTAG; value = 0.0507 z-score
Strand = TTAGAGATCAGACTGGATTAGTGCTAG; value = -0.243 z-score
Strand = GACGGTTTAGGTTCCGGGACGTGCTAG; value = 0.172 z-score

Set 4 — target: BATF3, bZIP domain (human); technique: DHFR protein complementation; medium: yeast; relative to: wild-type JUN-FOS pair; direction: higher = stronger binding; quantity: binding fitness
Setting: single substitutions, most at no-binding floor
Starting sequence: JUN, bZIP domain (human); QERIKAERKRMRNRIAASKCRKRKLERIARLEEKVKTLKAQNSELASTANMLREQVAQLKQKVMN; partner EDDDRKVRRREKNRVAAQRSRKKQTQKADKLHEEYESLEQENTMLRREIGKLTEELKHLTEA
Change = T48I; value = 0.0674 natural log
Change = A49R; value = 0.253 natural log
Change = E54V; value = 0.0828 natural log
Change = Q41D; value = 0.14 natural log
Change = V56M; value = 0.135 natural log
Change = S47K; value = 0.265 natural log
Change = A40T; value = 0.306 natural log
Change = I28E; value = 0.257 natural log

Set 5 — target: CCND2, cyclin fold, Cln2 fusion (human); technique: yeast growth competition, sequencing; medium: yeast; setting: weak parent motif; relative to: not given; direction: higher = stronger binding; quantity: normalised enrichment score; starting sequence: viral docking peptide; KGVKRKLFAEDSS
Change = F8H; value = 0.253
Change = V3W; value = -0.335
Change = L7Q; value = 0.117
Change = L7D; value = -0.067

Set 6 — technique: protein binding microarray; form: double-stranded DNA, one strand shown; medium: in vitro; tested at: not given; relative to: not given; direction: higher = stronger binding; quantity: E-score
Target: Histone acetyltransferase KAT6A, winged helix 2, GST fusion (KAT6A, Homo sapiens, UniProt Q92794, residues 85-181)
Setting: 8-mer, flanks averaged, mean of 2 arrays, mostly near background
Target sequence (chain): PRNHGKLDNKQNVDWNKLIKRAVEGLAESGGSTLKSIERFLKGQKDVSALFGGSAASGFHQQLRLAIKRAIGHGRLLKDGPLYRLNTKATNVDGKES
Strand = CGGAAGAC; value = 0.00392
Strand = GTGCAACA; value = -0.047
Strand = TGGGTCAA; value = 0.0974
Strand = AGAAAACC; value = -0.0965
Strand = CCCTTCCC; value = 0.105
Strand = ACTCGGTA; value = -0.168
Strand = GCAAACCC; value = 0.101
Strand = ACGTGGAA; value = -0.139

Repeated from above (set 1):
Change = A150V; value = 0.624 µM
Change = Y207G; value = 0.66 µM
Change = V136A; value = 0.512 µM
Change = V109A; value = 0.796 µM
Change = P501V; value = 0.724 µM
Change = Q257G; value = 0.711 µM
Change = V382A; value = 0.77 µM
Change = F352G; value = 0.515 µM
Change = L364G; value = 0.611 µM
Change = D237V; value = 0.489 µM
